Assay results gathered from unrelated publications.
Lines come from different studies, so protocols differ. Several values in a cell are separate wells, animals, samples, runs or records. ± gives the spread as reported.

Structure (SMILES) | test system | conditions | tissue uptake
COc1ccc(C)cc1NC(=O)OC1CC2CCCC(C1)N2Cc1ccc(CC[18F])cc1 (stereo not shown) | BALB/c mice, EMT6 tumour, heart | 2 h | 1.22 ± 0.18 %ID/g
C=Cc1cc(O)cc2nc(-c3ccc(O)c([76Br])c3)oc12 | female C57BL/6 mouse, lung | 1 h, high dose, with: estradiol 20 µg blocking | 0.34 ± 0.11 %ID/g
N=C(N)NCc1ccc(C(=O)NCCCC[C@H](NC(=O)N[C@@H](CCC(=O)O)C(=O)O)C(=O)O)cc1[131I] | SCID mouse, PC-3 xenografts, stomach | 21 h | 0.17 ± 0.21 %ID/g
CCNc1cc2[o+]c3cc(NCC)c(C)cc3c(-c3ccccc3C(=O)OCCOCC[18F])c2cc1C | rat, heart | 60 min | 1.32 %ID/g and 1.77 %ID/g
CCCC[C@H](NC(=O)CN1CCC(NC(=O)CN2CCC(NC(=O)CN3CCN(CC(=O)O)CCN(CC(=O)O)CCN(CC(=O)O)CC3)CC2)CC1)C(=O)N[C@H]1CC(=O)NCCCC[C@@H](C(N)=O)NC(=O)[C@H](Cc2c[nH]c3ccccc23)NC(=O)[C@H](CCCNC(=N)N)NC(=O)[C@@H](Cc2ccccc2)NC(=O)[C@H](Cc2c[nH]cn2)NC1=O [gallium-68 labelled] | C57BL/6J mice male B16-F10 tumour, bone | 1 h post injection, unblocked | 0.2 %ID/g
COc1cc2ccnc(Cc3ccc(O[11CH3])c(OC)c3)c2cc1OC | Sprague-Dawley rats, lung | intravenous, 0.08333 h | 0.323 ± 0.048 %ID/g
C[S]1CC[S]2CC[P](CO)(CO)[99Tc+]12.[C-]#[O+].[C-]#[O+].[C-]#[O+] | CF-1 mice, female, blood | intravenous, 1 h | 0.22 %ID/g
CN[C@](C)(C[18F])C(=O)O | SCID mouse A549 xenograft, brain | 120 min, post injection | 0.2 ± 0.02 %ID/g
N=C(N)NCc1ccc(C(=O)NCCCC[C@H](NC(=O)CCCCCCC(=O)NCCCC[C@H](NC(=O)N[C@@H](CCC(=O)O)C(=O)O)C(=O)O)C(=O)O)cc1[131I] | SCID mouse, PC-3 xenografts, brain | 1 h | 0.05 ± 0.02 %ID/g
O=C(c1ccc(F)cc1)C1CCN(C2Cc3c(cccc3OCC[18F])CC2O)CC1 (single isomer, unassigned; (-)) | Sprague-Dawley rat, male, blood | intravenous, dose not given, 60 min | 0.338 ± 0.088 %ID/g

Excerpt of the above:
Structure (SMILES) | test system | conditions | tissue uptake
CN[C@](C)(C[18F])C(=O)O | SCID mouse A549 xenograft, brain | 120 min, post injection | 0.2 ± 0.02 %ID/g
